Experimental data collected from several papers.
Numbered parts are unrelated; each lists some results of a single study. Changes are numbered by the printed parent chain.

Study 1
Target: Sal-like protein 4, full length isoform A (SALL4, Homo sapiens, UniProt Q9UJQ4, residues 1-1053)
UniProt Q9UJQ4, sequence (whole entry, looked up): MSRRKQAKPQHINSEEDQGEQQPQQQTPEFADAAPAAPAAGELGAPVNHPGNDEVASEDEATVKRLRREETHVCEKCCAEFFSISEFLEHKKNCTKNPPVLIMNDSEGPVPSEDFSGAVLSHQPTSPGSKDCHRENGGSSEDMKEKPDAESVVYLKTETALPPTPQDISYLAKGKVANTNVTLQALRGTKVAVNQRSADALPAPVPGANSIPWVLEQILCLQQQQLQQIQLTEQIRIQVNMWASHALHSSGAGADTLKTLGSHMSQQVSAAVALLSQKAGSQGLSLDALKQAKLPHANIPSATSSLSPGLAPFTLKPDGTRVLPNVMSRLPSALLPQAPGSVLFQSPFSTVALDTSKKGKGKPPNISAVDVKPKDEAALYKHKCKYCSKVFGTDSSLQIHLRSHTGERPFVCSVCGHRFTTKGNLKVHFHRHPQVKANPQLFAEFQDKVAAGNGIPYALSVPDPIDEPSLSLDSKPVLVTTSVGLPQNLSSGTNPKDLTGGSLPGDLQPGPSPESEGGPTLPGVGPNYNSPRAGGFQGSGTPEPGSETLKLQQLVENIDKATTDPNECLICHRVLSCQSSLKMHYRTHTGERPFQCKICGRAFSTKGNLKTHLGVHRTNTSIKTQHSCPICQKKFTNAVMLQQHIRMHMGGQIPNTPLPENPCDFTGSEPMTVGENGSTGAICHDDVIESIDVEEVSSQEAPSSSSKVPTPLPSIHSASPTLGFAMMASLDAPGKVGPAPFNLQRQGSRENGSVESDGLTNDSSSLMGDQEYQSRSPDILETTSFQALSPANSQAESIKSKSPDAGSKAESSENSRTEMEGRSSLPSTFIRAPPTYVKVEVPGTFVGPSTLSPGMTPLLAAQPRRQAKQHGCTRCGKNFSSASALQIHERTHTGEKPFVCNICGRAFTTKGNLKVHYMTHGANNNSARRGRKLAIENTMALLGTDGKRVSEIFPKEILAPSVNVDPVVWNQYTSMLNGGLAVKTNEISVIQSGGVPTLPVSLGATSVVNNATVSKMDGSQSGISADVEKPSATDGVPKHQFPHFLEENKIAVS
Method: universal PBM
Molecule type: double-stranded DNA, one strand shown
Sample: in vitro
Tested at: 600 nM
Notes: 8-mer, flanks averaged, mean of replicates
Reading: higher = stronger binding
With `AAGGGTAC` the E-score was 0.00175.
`CACATCTC` gave an E-score of 0.0475.
`GATACAGC` has an E-score of 0.0858.
The E-score of `AAAAATCC` is reported as 0.195.
`CCCTTACC` gave an E-score of -0.0801.
With `CCAAAGAC` the E-score was -0.0775.
`AGTAGTCA` has an E-score of 0.00668.
The E-score of `ACCGTATG` is reported as 0.0916.
For `AGAACACA`, the E-score was -0.0621.
`CACGTAGA` gave an E-score of -0.0754.
The E-score of `ATCATCTA` is reported as 0.203.
`ATGGCATA` gave an E-score of 0.264.
`AAACTTTG` has an E-score of 0.123.
The E-score of `AGATTCTG` is reported as 0.0413.
`CTCGTGCC` gave an E-score of -0.347.
With `ATGACTGG` the E-score was -0.199.
The E-score of `AATTAACG` is reported as 0.246.
`ATGATCCG` has an E-score of -0.0136.
`GTCTGCGA` has an E-score of -0.137.
With `CAAGTATG` the E-score was 0.202.
The E-score of `CTCTGACC` is reported as -0.292.
`TAACGATA` gave an E-score of 0.213.
The E-score of `CAACCCTA` is reported as -0.172.
For `ACAGCATG`, the E-score was -0.0625.
`ACTGCTTG` has an E-score of -0.123.

Study 2
Target: Histone acetyltransferase KAT6A, winged helix 2, GST fusion (KAT6A, Homo sapiens, UniProt Q92794, residues 85-181)
Method: protein binding microarray
Molecule type: double-stranded DNA, one strand shown
Sample: in vitro
Tested at: not given
Notes: 8-mer, flanks averaged, mean of 2 arrays, mostly near background
Reference: not given
Reading: higher = stronger binding
Residues (chain): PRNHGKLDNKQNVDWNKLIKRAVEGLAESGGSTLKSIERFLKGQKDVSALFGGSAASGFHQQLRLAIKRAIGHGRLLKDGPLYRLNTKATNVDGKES
For `AGTGGCTC`, the E-score was -0.11.
The E-score of `ACCGAAAA` is reported as 0.0219.
The E-score of `GTCGTAAC` is reported as 0.0438.
`AACTGTGT` has an E-score of -0.127.
`AGGAGGCA` gave an E-score of -0.00344.
The E-score of `ACTGTAGG` is reported as -0.0482.
`ACTTAAGC` gave an E-score of -0.0798.
With `CTTTTCCA` the E-score was -0.0993.
The E-score of `GAGTATCC` is reported as 0.0564.
`CAGAACCC` has an E-score of -0.0558.
With `CCTAGAGG` the E-score was -0.127.
The E-score of `TCCGAGGA` is reported as -0.0453.
With `ACTTCCGA` the E-score was -0.102.
For `CACTGTCC`, the E-score was -0.0192.
The E-score of `GACAAACC` is reported as 0.105.
With `CCTCTGAG` the E-score was 0.0295.
`AGCGAAGG` has an E-score of 0.0309.
With `AGAATACT` the E-score was -0.0615.
With `AGGTGGGA` the E-score was 0.0892.
With `AACCGATC` the E-score was -0.0843.
`AGCGGGGA` gave an E-score of -0.00245.
`AGCATGCG` has an E-score of 0.166.
`CTTCCGTC` has an E-score of 0.00186.
The E-score of `GCGAGTAC` is reported as 0.0524.
With `ACGTTCCA` the E-score was -0.106.

Study 3
Target: CCNE1, cyclin fold, Cln2 fusion (human)
Method: yeast growth competition, sequencing
Sample: yeast
Notes: weak parent motif
Reference: not given
Reading: higher = stronger binding
Starting sequence: WEE2 docking peptide (human); KELRQKLNFSYCE
Under “normalised enrichment score”, `R4A` is recorded as -0.0877.
`N8A`: “normalised enrichment score” 0.172.
Under “normalised enrichment score”, `K6A` is recorded as -0.12.
`Q5A` — result for “normalised enrichment score”: -0.189.
Under “normalised enrichment score”, `L3A` is recorded as 0.0805.
`L7A` — result for “normalised enrichment score”: -0.158.

Study 4
Target: RNA binding protein fox-1 homolog 2, RRM domain, GST-SBP tag (RBFOX2, Homo sapiens, UniProt O43251-10, residues 100-194)
Method: RNA Bind-n-Seq
Molecule type: RNA
Sample: in vitro
Tested at: 365 nM
Notes: natural RNA segment, single round, ends assumed
Reference: no-protein control
Reading: higher = stronger binding
Target sequence (chain): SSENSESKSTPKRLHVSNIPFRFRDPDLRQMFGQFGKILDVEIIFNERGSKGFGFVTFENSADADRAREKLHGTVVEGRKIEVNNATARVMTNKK
For `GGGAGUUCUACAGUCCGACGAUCAAGUUAUCUGUGACUAUUAUAUAGGGAUCACAAAAGUGUCACAUAUUAGAAUGCUGACCUUUCAUAUGGAUUAUUGUGAGUCAUCAGAGUUUAUUAUAACUUAUUGUUCAUGGAAUUCUCGGGUGCCAA`, “RBNS enrichment (R)” read 0.542.
For `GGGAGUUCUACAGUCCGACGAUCAUGGAGGCCCCUUCCUGCUGACCUUGCACGCGAGGGAUGCUACUAGGGACUGCUGGGGAUCUUUUCUUUCUUUCCUUCAGUAUUUGGUACUUUACCAGAGAGGUGUACAUUGGAAUUCUCGGGUGCCAA`, “RBNS enrichment (R)” read 0.343.
Under “RBNS enrichment (R)”, `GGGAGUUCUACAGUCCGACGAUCAAGUUUGAGAUAAGUCUUUUUUUGAAUUUUUUUUUCUCUGAUCUGCUUAAAAUGCAGAUUGGCUUUAAAAAGAAAAGAAAACAAACACACAUAUGCAAUGUUUUAAGGUCUGGAAUUCUCGGGUGCCAA` is recorded as 0.346.
`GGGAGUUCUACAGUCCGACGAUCGGAGUUGAAUAGCUUUUGCUUUGCAACACUAAUCCUCACACUUAAAAUGAUUCCAUUAAUCUUACUCAGAAGACAAAUAAGGAGGUUCUGAUGAAAUCUCUGAAAAAAAAUGGAAUUCUCGGGUGCCAA`: “RBNS enrichment (R)” 0.259.
`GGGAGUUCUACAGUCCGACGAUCAGUUACUAGCCCGUAGCUCUUGGGCUGCUCCACAUGGCUCCUUACGGCCGGCAAGAAUGGAUGUAAAAAUAUCUUGCUGCUUACAUCCAAAUUGCUGGUGGAUAUGGGGCUGGAAUUCUCGGGUGCCAA`: “RBNS enrichment (R)” 0.904.
Under “RBNS enrichment (R)”, `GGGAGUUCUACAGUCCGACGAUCUCUCGCACAUUUCCACAGCACCUGCUAAGUUUGUAUUUAAUGGUUUUUGUUUUUGUUUUUGUUUGUUUCUUGAAAAUGAGAGAAGAGCCGGAGAGAUGAUUUUUAUUAAUUGGAAUUCUCGGGUGCCAA` is recorded as 2.29.
`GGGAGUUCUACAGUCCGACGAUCGGCUGCAUCGGGAGCUAGAGCCAGCUAACAUUUCCUCUUUUCAAGACUGCCCUUGAUUUGCCCCUUGGUGCCAUGUAUUUCAGAGUUAAGGUCCUGCUUUCUCCACCUGGUGGAAUUCUCGGGUGCCAA` — result for “RBNS enrichment (R)”: 0.776.
`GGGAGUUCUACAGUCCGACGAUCUGAACUUUUUGUAGGGGACGAGAAAGAUCAUUGAAAUUCUGAGAAAACUUCUUUUAAACCUCACCUUUGUGGGGUUUUUGGAGAAGGUUAUCAAAAAUUUCAUGGAAGGAUGGAAUUCUCGGGUGCCAA`: “RBNS enrichment (R)” 1.
`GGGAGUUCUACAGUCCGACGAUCGAACGGACAGCAAAGGUGCAGGCGGUCAGGCUCCUCGCUUGGAAGACCACGGUUCUGAGCAAGUCUGCACAACAGCACCAAAAGGAGACCCCGAGGCCCAAAGAUAAACUUGGAAUUCUCGGGUGCCAA` — result for “RBNS enrichment (R)”: 0.497.
Under “RBNS enrichment (R)”, `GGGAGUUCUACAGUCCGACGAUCACAAAGGUUGAUCUCUAAAAAAACAAAAAACCCCAUUAAAACAAUAAAGAAUUUAUUUUGCCUAAAAUGUUAAAUUUAUUUUUUGAGCUGUAACAUGAAGAAUUUGGAUUUGGAAUUCUCGGGUGCCAA` is recorded as 0.86.
Under “RBNS enrichment (R)”, `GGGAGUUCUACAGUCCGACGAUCUCAGUGUCUUUUCAGCACUUUGAGCAUUUACUUGGCUCAUUUAGUCUUCCUUUUGUAGCGCAUGGUUGGGAGGAAAAAGUGCAUGCAUCAUUCCUUCACUCUUCUCUUUUUGGAAUUCUCGGGUGCCAA` is recorded as 17.5.
`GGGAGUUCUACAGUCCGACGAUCCACACCCACCAGAUUGUUACUACAGUGGGUUGGGUUUUCAUACAGACGUAAAUUUUGAGAGAAAAGUCAAAGGUGCUUCAGCCUUGUACUGUGUAUAUAUAUUAAAAAAAUGGAAUUCUCGGGUGCCAA` — result for “RBNS enrichment (R)”: 0.725.

Excerpt of the above (study 4):
Under “RBNS enrichment (R)”, `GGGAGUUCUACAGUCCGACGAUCUCUCGCACAUUUCCACAGCACCUGCUAAGUUUGUAUUUAAUGGUUUUUGUUUUUGUUUUUGUUUGUUUCUUGAAAAUGAGAGAAGAGCCGGAGAGAUGAUUUUUAUUAAUUGGAAUUCUCGGGUGCCAA` is recorded as 2.29.
`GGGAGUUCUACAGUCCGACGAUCCACACCCACCAGAUUGUUACUACAGUGGGUUGGGUUUUCAUACAGACGUAAAUUUUGAGAGAAAAGUCAAAGGUGCUUCAGCCUUGUACUGUGUAUAUAUAUUAAAAAAAUGGAAUUCUCGGGUGCCAA` — result for “RBNS enrichment (R)”: 0.725.
`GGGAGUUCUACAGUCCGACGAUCGAACGGACAGCAAAGGUGCAGGCGGUCAGGCUCCUCGCUUGGAAGACCACGGUUCUGAGCAAGUCUGCACAACAGCACCAAAAGGAGACCCCGAGGCCCAAAGAUAAACUUGGAAUUCUCGGGUGCCAA` — result for “RBNS enrichment (R)”: 0.497.
`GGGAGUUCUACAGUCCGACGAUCGGAGUUGAAUAGCUUUUGCUUUGCAACACUAAUCCUCACACUUAAAAUGAUUCCAUUAAUCUUACUCAGAAGACAAAUAAGGAGGUUCUGAUGAAAUCUCUGAAAAAAAAUGGAAUUCUCGGGUGCCAA`: “RBNS enrichment (R)” 0.259.
Under “RBNS enrichment (R)”, `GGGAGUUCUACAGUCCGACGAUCUCAGUGUCUUUUCAGCACUUUGAGCAUUUACUUGGCUCAUUUAGUCUUCCUUUUGUAGCGCAUGGUUGGGAGGAAAAAGUGCAUGCAUCAUUCCUUCACUCUUCUCUUUUUGGAAUUCUCGGGUGCCAA` is recorded as 17.5.
